Measurements of several laboratories.
Parts stem from different laboratories: compare values within a part only. Substitutions count along the parent as printed.

Study 1
Target: Sal-like protein 4, full length isoform A (SALL4, Homo sapiens, UniProt Q9UJQ4, residues 1-1053)
UniProt Q9UJQ4, sequence (whole entry, looked up): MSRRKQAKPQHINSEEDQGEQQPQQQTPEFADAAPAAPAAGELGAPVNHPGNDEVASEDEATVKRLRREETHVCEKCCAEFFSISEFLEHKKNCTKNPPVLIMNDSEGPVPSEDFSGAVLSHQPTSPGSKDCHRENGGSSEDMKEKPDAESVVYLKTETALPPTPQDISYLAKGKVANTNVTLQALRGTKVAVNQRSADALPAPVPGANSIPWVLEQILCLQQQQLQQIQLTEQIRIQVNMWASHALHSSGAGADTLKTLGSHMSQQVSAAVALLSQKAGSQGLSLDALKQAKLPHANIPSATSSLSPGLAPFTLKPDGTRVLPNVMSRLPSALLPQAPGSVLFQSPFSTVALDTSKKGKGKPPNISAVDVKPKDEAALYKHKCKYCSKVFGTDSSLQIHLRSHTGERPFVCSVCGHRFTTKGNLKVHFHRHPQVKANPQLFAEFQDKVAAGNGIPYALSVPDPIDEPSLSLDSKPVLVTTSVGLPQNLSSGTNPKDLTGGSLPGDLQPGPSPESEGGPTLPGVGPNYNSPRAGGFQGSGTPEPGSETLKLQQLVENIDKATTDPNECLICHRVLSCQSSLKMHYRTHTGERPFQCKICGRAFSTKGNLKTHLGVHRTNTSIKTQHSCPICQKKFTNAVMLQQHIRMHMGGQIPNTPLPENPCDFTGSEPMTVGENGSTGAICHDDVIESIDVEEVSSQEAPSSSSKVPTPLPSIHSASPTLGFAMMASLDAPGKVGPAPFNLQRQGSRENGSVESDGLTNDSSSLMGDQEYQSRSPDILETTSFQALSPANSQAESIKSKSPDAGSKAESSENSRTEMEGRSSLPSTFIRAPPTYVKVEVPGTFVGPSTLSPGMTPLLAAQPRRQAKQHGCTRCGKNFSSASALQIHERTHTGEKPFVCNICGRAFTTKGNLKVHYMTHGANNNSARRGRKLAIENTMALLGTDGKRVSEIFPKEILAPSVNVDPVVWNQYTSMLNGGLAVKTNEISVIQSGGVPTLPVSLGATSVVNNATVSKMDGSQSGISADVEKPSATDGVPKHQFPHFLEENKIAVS
Technique: universal PBM
Molecule type: double-stranded DNA, one strand shown
Medium: in vitro
Tested at: 600 nM
Setting: 8-mer, flanks averaged, mean of replicates
Reading: higher = stronger binding
Sequence	E-score
AATCGGAT	0.0928
ATTAACGC	0.148
ATATTTAG	0.391
CTTTCGGC	-0.109
CCATTACA	0.279
TATGCTCA	0.15
CCGCGCTC	-0.278
CTATTCTC	0.0693
ATGCGGTC	0.0109
TGAGAACA	0.121
ACTAGCCC	-0.105
CACATCGA	0.0284
CATAGCGA	0.0192
ATTTTCTC	0.0655
CTCTCGAA	-0.0567
AATTCCTA	0.157
AAGGTACT	0.082
AAATAGGA	0.182
GGTTCACA	0.0349
CTTGCTTA	0.0514
ATCGTTTC	0.1
TCCATCAA	0.263

Study 2
Target: CCNA2, cyclin fold, Cln2 fusion (human)
Technique: yeast growth competition, sequencing
Medium: yeast
Setting: strong parent motif
Relative to: not given
Reading: higher = stronger binding
Starting sequence: CDKN1A docking peptide (human); SKACRRLFGPVDS; partner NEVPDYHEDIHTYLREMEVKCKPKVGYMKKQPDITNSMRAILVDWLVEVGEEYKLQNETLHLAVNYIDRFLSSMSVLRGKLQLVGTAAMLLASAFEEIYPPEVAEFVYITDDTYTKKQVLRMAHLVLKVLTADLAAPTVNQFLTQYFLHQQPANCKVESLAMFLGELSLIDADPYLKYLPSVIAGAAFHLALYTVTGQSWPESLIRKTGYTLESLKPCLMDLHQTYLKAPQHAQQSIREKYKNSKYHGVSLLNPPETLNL
Variant	normalised enrichment score
V11A	6.17
R6P	1.04
V11Y	6.11
R5I	1.87
R5F	0.386
R6A	4.33
K2C	4
C4K	6.06
G9P	5.96
G9R	4.85
G9L	5.7
G9D	5.4
P10I	4.9
C4D	0.374
L7Q	0.723
L7V	0.888
G9H	5.58
S13A	5.91
K2P	5.01
R5V	2.52
K2N	5.49
A3F	3.26
C4V	5.25
D12C	5
V11D	6.33

Study 3
Target: Histone acetyltransferase KAT6A, winged helix 2, GST fusion (KAT6A, Homo sapiens, UniProt Q92794, residues 85-181)
Technique: protein binding microarray
Molecule type: double-stranded DNA, one strand shown
Medium: in vitro
Tested at: not given
Setting: 8-mer, flanks averaged, mean of 2 arrays, mostly near background
Relative to: not given
Reading: higher = stronger binding
Target sequence (chain): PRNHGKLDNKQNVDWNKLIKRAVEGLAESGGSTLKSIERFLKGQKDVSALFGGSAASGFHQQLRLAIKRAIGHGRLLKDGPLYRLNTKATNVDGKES
Sequence	E-score
CCTTCCCG	-0.0504
ACATGACA	-0.0737
AGGCCCGC	0.0871
CGGTAAAA	0.0303
CGCTGCAG	-0.023
GCTGAACC	0.125
ATTCAGTG	-0.00419
GGGACTAC	-0.0492
CGGTCAAG	0.0288
CCCGTGGC	0.11
ATCAGCCA	0.0398
CGCAGTCC	0.164
AACTGGCC	0.107
AAATGGAA	0.0366
CTGTGTTA	-0.14
AACCCCTT	-0.113
CTCAGAGC	0.0929
AGGGAGGC	0.0842
CTGTAAAA	-0.0245
CACCCTCG	-0.04
AACCTCCG	-0.00847
AAAAGCTT	-0.213
AGACTGTC	-0.227

Study 4
Target: RNA binding protein fox-1 homolog 2, RRM domain, GST-SBP tag (RBFOX2, Homo sapiens, UniProt O43251-10, residues 100-194)
Technique: RNA Bind-n-Seq
Molecule type: RNA
Medium: in vitro
Tested at: 365 nM
Setting: natural RNA segment, single round, ends assumed
Relative to: no-protein control
Reading: higher = stronger binding
Construct (chain): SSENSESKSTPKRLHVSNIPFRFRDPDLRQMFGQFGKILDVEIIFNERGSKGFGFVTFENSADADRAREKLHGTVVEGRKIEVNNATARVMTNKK
Sequence	RBNS enrichment (R)
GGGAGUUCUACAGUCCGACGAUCCCCACCCCGUGCAGCCCAUGCUGAGGCUGCAGUGGUGUCGUGGGUGUUACGUGCAGGAACGUGGAGACCCUGACGUGGGCUCACUGCGUUUGGUUUUCUUUUCAGAACUUUGGAAUUCUCGGGUGCCAA	0.284
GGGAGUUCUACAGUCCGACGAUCCCUGGGUCACCAGCCAUAGGGUACAGCCAGCCCCAGUGUGUGGUCUUGUUGGCCUGCUGGGUAGAACCUUUGCUUCAGGCUUCAUGCUCACAGCUUCCUGUCCUUUGCCCUGGAAUUCUCGGGUGCCAA	0.238
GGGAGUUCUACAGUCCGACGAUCGUUUUCGGCAGGGGCCUUGUCUCUCACUGCAUUUGGUCAGGGGGGCAUGAAUAAAGGCUACAGGCUCAACGUGUGUGGCAGCUUUCGGUCUUUCCCUCUGGGUGCUUGGUUGGAAUUCUCGGGUGCCAA	3.6
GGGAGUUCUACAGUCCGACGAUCAGGGGCAGGGAACCGCCUGCCUGUGCACUCACGCCACCCCCCAGCCCACAAAGAGCCCAUCUGAGAGAAGGACGUGGUGGAGCCAGGACGGGAAAGCGUCCUGUCGGCUGUGGAAUUCUCGGGUGCCAA	0.465
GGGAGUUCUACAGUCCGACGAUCGAGUUAUAAAUGAUGGUUUAGUUCUCAGGCAGCUACAAAUGCCUAUUUAUUCCCUAAUGUACCUGAACACUAGUACCAUAGAACUGAACCACCAUCUGUAUCAGCGCAUGUGGAAUUCUCGGGUGCCAA	1.3
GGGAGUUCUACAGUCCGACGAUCAAAACUCUAUUUCUGUUCAUAUUAAUUCACUUGCCAGACUCCAAUUCUGAAAGUUGUCUAGUUCUUCCUUCAUCACACGUGCUUCUCAUCGAAACCCUGGUUUCAGGAUGUGGAAUUCUCGGGUGCCAA	0.208
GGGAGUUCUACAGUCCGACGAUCAAAAGUUAACUUGUAUUAUGUAUUUUUACUACACUUUUCUUAAAAAUAGAGCAUUGGGAAAACUCUGAAAGAGACUGACAUUUUUCUCAACAGGAAUCCAUACUUAACAGUGGAAUUCUCGGGUGCCAA	0.58
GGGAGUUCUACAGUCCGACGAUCGCUUAAUUUAUUGUUUAACACCCCCUAACUGCCGAAACCAAAGUGAUACGGAGUCGUCUUGUCUGCAUUUUGGCCUCAGCAUCAUUAACUUCAAAGCUUUAUUCUGUCUGUGGAAUUCUCGGGUGCCAA	0.648

Study 5
Target: RING finger protein unkempt homolog, zinc fingers 1-6, GST-SBP tag (UNK, Homo sapiens, UniProt Q9C0B0, residues 30-357)
UniProt Q9C0B0, sequence (30-357, looked up): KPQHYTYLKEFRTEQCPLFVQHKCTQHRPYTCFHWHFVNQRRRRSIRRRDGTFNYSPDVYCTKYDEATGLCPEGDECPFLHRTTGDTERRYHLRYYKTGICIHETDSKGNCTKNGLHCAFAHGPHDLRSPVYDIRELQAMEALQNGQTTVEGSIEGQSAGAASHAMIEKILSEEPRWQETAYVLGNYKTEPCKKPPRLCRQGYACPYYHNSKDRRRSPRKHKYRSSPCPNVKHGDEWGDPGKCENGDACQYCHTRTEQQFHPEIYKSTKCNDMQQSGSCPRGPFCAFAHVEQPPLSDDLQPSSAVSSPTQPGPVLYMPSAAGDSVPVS
Technique: RNA Bind-n-Seq
Molecule type: RNA
Medium: in vitro
Tested at: not given
Setting: RNA with constant flanks, human and mouse sites, ends assumed
Relative to: input RNA pool
Reading: higher = stronger binding
Sequence	bound/input enrichment [ratio]
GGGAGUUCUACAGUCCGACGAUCUCUUCUGUUAUCCCUGGGGGUGCUCAGGUUCACUUGAUUGUCUGUAUUUCUGUGUGGUUGUAGCAAGGACUCAGCCUCAUGUAGCACGAAUAGGGGUGUGGUUCAUGGCGUGUUGACCCACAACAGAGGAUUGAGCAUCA	0.328
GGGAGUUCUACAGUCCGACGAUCAGUGUGCAGGAAUUCAUGACCUUUACAAGUCAACUGAUUGUGGAACGCUCGGGGAAAGGCAGCAGAGCUUCUGUCAAAGAACAAGAGUAUCUUUGCCAUGUCUACGUCCGGAGCGACAGUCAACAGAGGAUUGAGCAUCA	0.105
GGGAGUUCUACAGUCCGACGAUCGGGCUAACCUUUAUUAAACAGAUCGCAUAUUAUGAUCUUGCUGCAGCCACAGUGCAGCUCCACAUUAACUCUACAGACCAAACCAUUUGUAUCUGGCAUCACUUACUAACACACGACAUGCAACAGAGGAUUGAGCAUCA	0.833
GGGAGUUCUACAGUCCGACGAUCGACGUCAUGGAAGACAAACUCAAGGGCGAGAUGAUGGAUCUCCAGCAUGGCAGCCUCUUCCUUAAAACACCAAAAAUUGUCUCCAGCAAAGACUACUGUGUAACUGCGAACUCCAAGCUGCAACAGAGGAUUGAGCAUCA	0.167
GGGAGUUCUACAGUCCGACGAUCACCCUGGAAGACCCUUGGAUUGGGAGUGAGAGUGACAAAUUUAUCCUCUUGGGCUAUCUCGACCAGCUGCGUAAAGAUCCAGCUCUUCUGUCCUCUGAAGCAGUGCUUCCUGACCUGACCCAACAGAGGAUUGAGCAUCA	0.222
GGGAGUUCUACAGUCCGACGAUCCGAAACCCUUACUACGGAGGAGAGAGUGCAUCUAUAACACCAUUGGAAGAUUUAUACAAAAGAUUUAAAAUACCAGGAUCACCACCCGAGUCAAUGGGGAGAGGAAGAGACUGGAAUGUUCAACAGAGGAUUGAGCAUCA	0.719
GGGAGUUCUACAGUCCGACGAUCACAGUGCAGUACAUACUAACCAUGGUUGACGAUAUGCUGCAGGAAAAUCACCAGCGUGUCAGCAUUUUCUUUGACUAUGCGAAACGAAGCAAGAGCACUGCCUGGCCAUACUUCCUGCCACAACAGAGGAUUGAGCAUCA	0.152
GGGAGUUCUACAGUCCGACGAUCGGCACCCAAGUGGAUGAGGGUGUCCGCUCAGCUAGCAAACGCAUUGUGGCACCCCCUGGAGGCCGUUCUAACAUCACAUCCCUGAGUUAAGCCCUCCCAAAGAGGGAGGCAGAAGCAAGACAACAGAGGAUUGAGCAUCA	0.312
